Results collected from several papers.
± gives the spread as reported.
ache: Acetylcholinesterase (ache, Electrophorus electricus, UniProt O42275)
Neuronal acetylcholine receptor; alpha3/beta2: Neuronal acetylcholine receptor; alpha3/beta2 (Rattus norvegicus, UniProt P04757+P12390)
CYBB: NADPH oxidase 2 (CYBB, Homo sapiens, UniProt P04839)
NOX5: NADPH oxidase 5 (NOX5, Homo sapiens, UniProt Q96PH1)
Salicylate synthetase, Irp9: Salicylate synthetase, Irp9 (Yersinia enterocolitica, UniProt Q9X9I8)
NOX1: NADPH oxidase 1 (NOX1, Homo sapiens, UniProt Q9Y5S8)

By UniProt entry, the sequences of proteins in these tests, tags left out. Where a name states a change or a piece, a line headed by the entry shows the natural chain unless it says otherwise. Residues count along the entry.
UniProt P04757, 26-499 limits assumed: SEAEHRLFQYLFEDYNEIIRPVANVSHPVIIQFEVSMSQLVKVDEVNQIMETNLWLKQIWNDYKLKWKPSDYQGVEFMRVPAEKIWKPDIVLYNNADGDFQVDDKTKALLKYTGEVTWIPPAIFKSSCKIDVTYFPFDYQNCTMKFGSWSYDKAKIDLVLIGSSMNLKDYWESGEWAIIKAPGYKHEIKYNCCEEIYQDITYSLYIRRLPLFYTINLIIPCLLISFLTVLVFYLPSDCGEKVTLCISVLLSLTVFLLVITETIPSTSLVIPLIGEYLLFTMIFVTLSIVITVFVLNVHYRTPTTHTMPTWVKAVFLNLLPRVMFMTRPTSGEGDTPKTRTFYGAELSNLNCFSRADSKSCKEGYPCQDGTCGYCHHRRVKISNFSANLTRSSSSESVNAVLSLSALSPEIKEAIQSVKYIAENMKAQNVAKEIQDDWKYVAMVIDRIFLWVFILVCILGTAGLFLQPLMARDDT
UniProt P12390, 25-500 limits assumed: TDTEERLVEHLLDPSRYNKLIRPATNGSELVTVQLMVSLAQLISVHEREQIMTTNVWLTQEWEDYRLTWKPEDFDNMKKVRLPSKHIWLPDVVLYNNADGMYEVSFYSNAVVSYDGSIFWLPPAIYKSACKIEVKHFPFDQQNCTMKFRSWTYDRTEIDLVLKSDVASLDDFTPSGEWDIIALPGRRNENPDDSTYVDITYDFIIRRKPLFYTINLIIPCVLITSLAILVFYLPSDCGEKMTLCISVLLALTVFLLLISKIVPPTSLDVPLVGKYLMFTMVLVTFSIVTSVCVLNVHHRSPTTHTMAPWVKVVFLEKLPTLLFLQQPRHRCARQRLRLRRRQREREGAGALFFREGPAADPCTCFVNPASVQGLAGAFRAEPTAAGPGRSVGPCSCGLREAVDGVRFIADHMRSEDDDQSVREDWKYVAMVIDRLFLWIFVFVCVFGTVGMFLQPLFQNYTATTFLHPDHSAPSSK
UniProt Q96PH1, 1-719 isoform 4: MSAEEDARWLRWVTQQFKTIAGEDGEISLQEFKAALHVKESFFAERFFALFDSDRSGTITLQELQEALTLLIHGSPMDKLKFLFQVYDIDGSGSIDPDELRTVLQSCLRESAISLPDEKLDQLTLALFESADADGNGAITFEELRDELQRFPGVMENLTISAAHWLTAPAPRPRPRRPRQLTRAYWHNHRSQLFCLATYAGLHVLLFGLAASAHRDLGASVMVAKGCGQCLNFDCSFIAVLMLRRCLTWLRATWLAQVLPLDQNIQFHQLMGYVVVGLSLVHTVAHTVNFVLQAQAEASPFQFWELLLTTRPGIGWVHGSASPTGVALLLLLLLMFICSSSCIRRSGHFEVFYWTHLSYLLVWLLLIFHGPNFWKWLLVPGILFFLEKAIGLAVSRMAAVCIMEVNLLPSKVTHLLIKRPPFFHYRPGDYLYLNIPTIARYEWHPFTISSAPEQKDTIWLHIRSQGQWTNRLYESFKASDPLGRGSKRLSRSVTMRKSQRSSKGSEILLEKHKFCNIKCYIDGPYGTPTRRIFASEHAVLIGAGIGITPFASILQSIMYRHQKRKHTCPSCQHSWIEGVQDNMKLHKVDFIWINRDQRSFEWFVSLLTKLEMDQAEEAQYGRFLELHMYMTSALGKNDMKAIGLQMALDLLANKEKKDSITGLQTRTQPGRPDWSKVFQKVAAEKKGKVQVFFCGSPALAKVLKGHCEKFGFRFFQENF
UniProt Q9Y5S8, whole entry: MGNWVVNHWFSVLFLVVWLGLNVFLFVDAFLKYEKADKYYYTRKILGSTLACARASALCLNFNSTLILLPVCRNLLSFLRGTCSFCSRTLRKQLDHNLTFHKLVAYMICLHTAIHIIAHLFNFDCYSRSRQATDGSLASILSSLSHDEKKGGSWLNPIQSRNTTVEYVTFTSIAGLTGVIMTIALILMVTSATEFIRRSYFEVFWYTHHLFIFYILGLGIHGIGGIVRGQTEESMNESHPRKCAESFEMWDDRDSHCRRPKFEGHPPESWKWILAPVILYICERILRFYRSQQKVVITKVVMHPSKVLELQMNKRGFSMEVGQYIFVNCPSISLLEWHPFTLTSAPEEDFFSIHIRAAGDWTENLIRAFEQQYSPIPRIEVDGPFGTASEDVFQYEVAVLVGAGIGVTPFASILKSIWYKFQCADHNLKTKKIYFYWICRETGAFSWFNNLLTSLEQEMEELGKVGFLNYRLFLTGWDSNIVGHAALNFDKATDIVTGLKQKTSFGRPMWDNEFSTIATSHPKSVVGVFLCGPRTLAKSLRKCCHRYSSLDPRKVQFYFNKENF
UniProt P17405, 47-631 limits assumed: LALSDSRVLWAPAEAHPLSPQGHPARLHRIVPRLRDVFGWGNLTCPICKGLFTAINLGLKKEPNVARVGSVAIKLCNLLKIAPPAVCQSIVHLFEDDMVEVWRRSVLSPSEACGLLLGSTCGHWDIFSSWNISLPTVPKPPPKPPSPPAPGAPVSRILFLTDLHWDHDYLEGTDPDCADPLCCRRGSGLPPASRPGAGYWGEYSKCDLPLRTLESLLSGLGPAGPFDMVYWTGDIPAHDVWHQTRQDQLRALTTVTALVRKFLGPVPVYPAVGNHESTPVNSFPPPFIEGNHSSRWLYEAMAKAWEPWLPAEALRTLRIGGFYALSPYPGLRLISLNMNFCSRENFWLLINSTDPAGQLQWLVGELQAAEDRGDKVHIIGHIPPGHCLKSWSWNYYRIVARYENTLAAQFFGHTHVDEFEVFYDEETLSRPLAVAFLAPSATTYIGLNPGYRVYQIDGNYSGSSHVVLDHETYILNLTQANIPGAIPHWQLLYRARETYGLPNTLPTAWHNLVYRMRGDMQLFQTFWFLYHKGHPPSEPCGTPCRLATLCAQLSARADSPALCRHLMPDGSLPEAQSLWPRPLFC
UniProt P09483, 31-630 limits assumed: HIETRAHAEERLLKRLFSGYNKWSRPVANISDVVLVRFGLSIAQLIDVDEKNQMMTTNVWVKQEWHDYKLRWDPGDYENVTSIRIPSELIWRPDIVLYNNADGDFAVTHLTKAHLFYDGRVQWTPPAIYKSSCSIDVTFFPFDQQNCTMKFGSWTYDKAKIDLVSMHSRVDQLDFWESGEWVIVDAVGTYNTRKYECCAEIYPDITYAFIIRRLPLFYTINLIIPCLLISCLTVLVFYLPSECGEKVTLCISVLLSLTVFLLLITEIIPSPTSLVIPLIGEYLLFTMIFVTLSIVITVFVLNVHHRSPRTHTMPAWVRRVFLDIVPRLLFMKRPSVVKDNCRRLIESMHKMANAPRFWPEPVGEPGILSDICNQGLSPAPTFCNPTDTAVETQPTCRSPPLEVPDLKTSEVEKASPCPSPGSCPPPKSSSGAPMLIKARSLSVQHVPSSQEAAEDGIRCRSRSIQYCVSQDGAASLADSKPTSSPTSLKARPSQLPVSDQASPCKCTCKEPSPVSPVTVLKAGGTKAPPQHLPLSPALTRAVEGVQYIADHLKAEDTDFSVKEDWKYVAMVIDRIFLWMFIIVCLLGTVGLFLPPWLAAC
UniProt P36544, 23-502 limits assumed: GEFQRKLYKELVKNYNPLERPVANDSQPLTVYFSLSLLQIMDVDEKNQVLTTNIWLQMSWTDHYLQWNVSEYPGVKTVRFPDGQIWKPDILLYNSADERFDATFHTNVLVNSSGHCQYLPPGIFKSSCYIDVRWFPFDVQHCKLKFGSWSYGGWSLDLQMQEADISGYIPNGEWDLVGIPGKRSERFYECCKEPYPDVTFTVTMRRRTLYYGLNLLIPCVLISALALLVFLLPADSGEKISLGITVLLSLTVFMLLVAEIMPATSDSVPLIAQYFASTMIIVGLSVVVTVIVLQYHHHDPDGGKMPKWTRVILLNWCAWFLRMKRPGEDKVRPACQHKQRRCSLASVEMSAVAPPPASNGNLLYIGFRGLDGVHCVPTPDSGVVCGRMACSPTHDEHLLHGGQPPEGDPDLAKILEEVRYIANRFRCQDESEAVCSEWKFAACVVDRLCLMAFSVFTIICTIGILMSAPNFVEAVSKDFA
UniProt P19456, 1-908 limits assumed, stated change not applied: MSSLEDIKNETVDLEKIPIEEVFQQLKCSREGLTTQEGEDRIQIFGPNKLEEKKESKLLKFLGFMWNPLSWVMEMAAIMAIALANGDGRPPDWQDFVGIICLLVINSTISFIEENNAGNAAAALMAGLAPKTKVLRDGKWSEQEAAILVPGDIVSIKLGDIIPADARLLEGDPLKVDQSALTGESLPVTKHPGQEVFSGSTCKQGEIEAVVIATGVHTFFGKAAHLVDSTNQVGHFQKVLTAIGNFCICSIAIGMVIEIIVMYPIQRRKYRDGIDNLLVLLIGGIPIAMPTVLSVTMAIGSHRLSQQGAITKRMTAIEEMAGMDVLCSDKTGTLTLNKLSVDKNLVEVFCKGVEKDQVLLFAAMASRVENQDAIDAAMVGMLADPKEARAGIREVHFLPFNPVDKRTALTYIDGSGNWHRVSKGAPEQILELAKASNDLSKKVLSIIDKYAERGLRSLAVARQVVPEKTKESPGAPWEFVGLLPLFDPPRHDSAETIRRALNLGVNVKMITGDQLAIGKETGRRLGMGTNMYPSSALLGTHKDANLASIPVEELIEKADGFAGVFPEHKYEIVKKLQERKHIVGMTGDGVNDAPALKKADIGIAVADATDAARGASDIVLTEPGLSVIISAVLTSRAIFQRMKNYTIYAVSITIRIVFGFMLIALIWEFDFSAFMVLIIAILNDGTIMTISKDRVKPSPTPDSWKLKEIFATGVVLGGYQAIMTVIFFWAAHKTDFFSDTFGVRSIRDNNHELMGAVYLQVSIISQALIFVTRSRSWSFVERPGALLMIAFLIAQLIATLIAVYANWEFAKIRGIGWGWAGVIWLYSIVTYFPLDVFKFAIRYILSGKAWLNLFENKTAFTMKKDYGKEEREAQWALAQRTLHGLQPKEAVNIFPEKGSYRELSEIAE
UniProt P48169, whole entry, looked up: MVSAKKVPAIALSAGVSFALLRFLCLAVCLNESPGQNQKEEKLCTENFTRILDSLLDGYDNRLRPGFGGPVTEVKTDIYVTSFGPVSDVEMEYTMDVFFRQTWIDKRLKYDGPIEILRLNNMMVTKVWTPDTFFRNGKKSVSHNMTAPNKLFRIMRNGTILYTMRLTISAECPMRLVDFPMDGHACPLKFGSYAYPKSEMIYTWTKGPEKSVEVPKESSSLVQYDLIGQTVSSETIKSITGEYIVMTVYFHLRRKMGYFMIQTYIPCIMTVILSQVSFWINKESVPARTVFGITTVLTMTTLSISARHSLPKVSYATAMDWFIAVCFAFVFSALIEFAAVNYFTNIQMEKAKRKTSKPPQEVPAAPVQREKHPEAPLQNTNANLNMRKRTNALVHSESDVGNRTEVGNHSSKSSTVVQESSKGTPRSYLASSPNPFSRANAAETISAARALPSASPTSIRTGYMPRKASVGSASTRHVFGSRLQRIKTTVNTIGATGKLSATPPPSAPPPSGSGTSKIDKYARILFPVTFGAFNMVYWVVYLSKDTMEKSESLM
UniProt P06401, whole entry: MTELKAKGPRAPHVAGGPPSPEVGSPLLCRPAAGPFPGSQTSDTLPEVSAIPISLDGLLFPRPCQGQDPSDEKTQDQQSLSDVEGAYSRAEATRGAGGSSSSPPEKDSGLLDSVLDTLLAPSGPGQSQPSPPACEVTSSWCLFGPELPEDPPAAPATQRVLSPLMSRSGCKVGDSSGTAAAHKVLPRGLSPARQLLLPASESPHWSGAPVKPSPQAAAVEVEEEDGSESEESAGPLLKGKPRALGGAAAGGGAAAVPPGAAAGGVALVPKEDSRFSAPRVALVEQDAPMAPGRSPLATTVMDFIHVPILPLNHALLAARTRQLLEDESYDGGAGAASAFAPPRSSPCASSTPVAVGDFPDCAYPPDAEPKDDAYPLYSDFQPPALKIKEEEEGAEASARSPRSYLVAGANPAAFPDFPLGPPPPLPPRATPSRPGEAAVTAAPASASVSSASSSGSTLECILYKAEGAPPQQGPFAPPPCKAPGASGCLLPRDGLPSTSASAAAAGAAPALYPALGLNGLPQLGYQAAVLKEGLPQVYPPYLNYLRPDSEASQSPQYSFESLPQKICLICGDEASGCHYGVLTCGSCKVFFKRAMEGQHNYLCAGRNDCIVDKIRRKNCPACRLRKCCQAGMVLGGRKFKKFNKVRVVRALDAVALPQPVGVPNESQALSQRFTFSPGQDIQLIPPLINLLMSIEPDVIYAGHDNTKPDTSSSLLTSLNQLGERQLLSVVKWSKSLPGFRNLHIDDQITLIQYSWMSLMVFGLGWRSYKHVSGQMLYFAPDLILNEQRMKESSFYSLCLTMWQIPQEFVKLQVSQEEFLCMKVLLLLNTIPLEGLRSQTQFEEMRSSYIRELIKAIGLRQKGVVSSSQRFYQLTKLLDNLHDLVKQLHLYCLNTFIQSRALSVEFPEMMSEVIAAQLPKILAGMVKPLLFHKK
UniProt Q51507, whole entry: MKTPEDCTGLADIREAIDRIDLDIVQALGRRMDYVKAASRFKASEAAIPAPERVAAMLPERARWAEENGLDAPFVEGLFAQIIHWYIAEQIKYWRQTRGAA
UniProt P13498, whole entry partner: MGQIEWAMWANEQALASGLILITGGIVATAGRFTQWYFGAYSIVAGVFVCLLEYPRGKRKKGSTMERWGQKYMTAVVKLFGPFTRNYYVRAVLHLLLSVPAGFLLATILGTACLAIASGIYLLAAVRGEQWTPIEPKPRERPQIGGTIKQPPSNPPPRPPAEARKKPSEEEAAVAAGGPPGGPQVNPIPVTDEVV

SMILES	target	test	system	setting	how to read	quantity	value
C=C(C)[C@@H]1[C@H]2OC(=O)[C@@H]1[C@]1(O)C[C@H]3O[C@]34C(=O)O[C@H]2[C@]14C	GABA-A receptor; alpha-2/beta-3/gamma-2 (Homo sapiens, UniProt P18507+P28472+P47869)	GABA-evoked current, inhibitor, whole-cell patch clamp	L929	3 min preincubation, added: 100 µM GABA (EC90)		IC50	6.8 µM
N#Cc1c(-c2ccc(-c3no[n+]([O-])c3C#N)cc2)no[n+]1[O-]	Thioredoxin glutathione reductase (Schistosoma mansoni, UniProt Q962Y6)	enzyme activity, inhibitor				IC50	1 µM
C[Si](C)(C)CCOC(=O)Cc1ccccc1Nc1c(Cl)cccc1Cl	ache	enzyme activity, inhibitor, Ellman				IC50	2.66 ± 0.25 µM
CCN1CCN(Cc2ccc(NC(=O)c3ccc(C)c(/C=C/c4cnc5[nH]ccc5c4OC)c3)cc2C(F)(F)F)CC1	ETV6-SYK fusion	kinase-CDC37 interaction, cell-based kinome screen		5 µM	reference: vehicle	log2 fold change	0.362
CC(C)C[C@@H]1NC(=O)[C@H](CCC(=O)O)NC(=O)[C@@H]2CCCN2C(=O)[C@H](Cc2c[nH]cn2)NC(=O)[C@H](CC(N)=O)NC(=O)[C@H]([C@@H](C)O)NC(=O)[C@H](CO)NC(=O)[C@@H]2CSSC[C@H](NC(=O)CN)C(=O)N[C@@H](CSSC[C@@H](C(N)=O)NC1=O)C(=O)N[C@@H](CO)C(=O)N[C@@H](Cc1c[nH]cn1)C(=O)N1CCC[C@H]1C(=O)N[C@@H](C)C(=O)N2	Neuronal acetylcholine receptor; alpha3/beta2	ion current, antagonist, two-electrode voltage clamp	Xenopus laevis oocytes	added: 100 µM acetylcholine		IC50	0.0245 µM
c1ccc(Cn2nnc3c(Sc4nc5ncccc5o4)ncnc32)cc1	CYBB	enzyme activity, inhibitor, MCLA chemiluminescence	cell-free membranes			IC50	3.4 ± 0.7 µM
CC[C@H](C)[C@@H]1NC(=O)[C@H](CCC(=O)O)NC(=O)[C@@H]2CCCN2C(=O)[C@H](Cc2c[nH]cn2)NC(=O)[C@H](CC(N)=O)NC(=O)[C@H](C(C)C)NC(=O)[C@H](CO)NC(=O)[C@@H]2CSSC[C@H](NC(=O)CN)C(=O)N[C@@H](CSSC[C@@H](C(N)=O)NC1=O)C(=O)N[C@@H](CO)C(=O)N[C@@H](Cc1c[nH]cn1)C(=O)N1CCC[C@H]1C(=O)N[C@@H](C)C(=O)N2	Neuronal acetylcholine receptor; alpha3/beta2	ion current, antagonist, two-electrode voltage clamp	Xenopus laevis oocytes	added: 100 µM acetylcholine		IC50	0.00641 µM
Brc1ccc2nc(Sc3ncnc4c3nnn4Cc3ccccc3)oc2c1	NOX5	enzyme activity, inhibitor, Amplex Red	cell-free membranes			IC50	1.6 ± 0.1 µM
CC(C)[C@@H]1NC(=O)[C@H](CO)NC(=O)[C@@H]2CSSC[C@H](NC(=O)CN)C(=O)N[C@@H](CSSC[C@@H](C(N)=O)NC(=O)[C@H](C)NC(=O)[C@H](CCC(=O)O)NC(=O)[C@@H]3CCCN3C(=O)[C@H](Cc3c[nH]cn3)NC(=O)[C@H](CC(N)=O)NC1=O)C(=O)N[C@@H](CO)C(=O)N[C@@H](Cc1c[nH]cn1)C(=O)N1CCC[C@H]1C(=O)N[C@@H](C)C(=O)N2	Neuronal acetylcholine receptor; alpha3/beta2	ion current, antagonist, two-electrode voltage clamp	Xenopus laevis oocytes	added: 100 µM acetylcholine		IC50	0.733 µM
O=C(O)c1cc(S(=O)(=O)Nc2ccccc2C(=O)O)ccc1Br	Salicylate synthetase, Irp9	salicylate production, inhibitor		pH 7.5, 25 °C, added: chorismate 2 µM		IC50	> 160 µM
Cc1cccc2oc(Sc3ncnc4c3nnn4Cc3ccccc3)nc12	NOX5	enzyme activity, inhibitor, Amplex Red	cell-free membranes			IC50	1.2 ± 0.1 µM
CC[C@H](C)[C@@H]1NC(=O)[C@H](CCC(=O)O)NC(=O)[C@@H]2CCCN2C(=O)[C@H](Cc2c[nH]cn2)NC(=O)[C@H](CC(N)=O)NC(=O)[C@H](CC(C)C)NC(=O)[C@H](Cc2c[nH]cn2)NC(=O)[C@@H]2CSSC[C@H](NC(=O)CN)C(=O)N[C@@H](CSSC[C@@H](C(N)=O)NC1=O)C(=O)N[C@@H](CO)C(=O)N[C@@H](Cc1c[nH]cn1)C(=O)N1CCC[C@H]1C(=O)N[C@@H](C)C(=O)N2	Neuronal acetylcholine receptor; alpha3/beta2	ion current, antagonist, two-electrode voltage clamp	Xenopus laevis oocytes	added: 100 µM acetylcholine		IC50	0.00028 µM
CC(C)c1ccc2nc(Sc3ncnc4c3nnn4Cc3ccccc3)oc2c1	NOX5	enzyme activity, inhibitor, Amplex Red	cell-free membranes			IC50	0.3 ± 0.1 µM
CCC(=N\O)/C(C)=C/c1ccc(F)cc1	Trpa1 (Mus musculus, UniProt Q8BLA8)	calcium influx, antagonist, FlexStation calcium	HEK-293T transfected	added: CS gas at EC50		IC50	0.47 µM
Clc1ccc2nc(Sc3ncnc4c3nnn4Cc3ccccc3)oc2c1	NOX1	enzyme activity, inhibitor, Amplex Red	cell-free membranes			IC50	> 100 µM
CC(C)C[C@@H]1NC(=O)[C@H](CCC(=O)O)NC(=O)[C@@H]2CCCN2C(=O)[C@H](Cc2c[nH]cn2)NC(=O)[C@H](CC(=O)O)NC(=O)[C@H](C(C)C)NC(=O)[C@H](CO)NC(=O)[C@@H]2CSSC[C@H](NC(=O)CN)C(=O)N[C@@H](CSSC[C@@H](C(N)=O)NC1=O)C(=O)N[C@@H](CO)C(=O)N[C@@H](Cc1c[nH]cn1)C(=O)N1CCC[C@H]1C(=O)N[C@@H](C)C(=O)N2	Neuronal acetylcholine receptor; alpha3/beta2	ion current, antagonist, two-electrode voltage clamp	Xenopus laevis oocytes	added: 100 µM acetylcholine		IC50	0.054 µM
O=C(NCC1CCN(Cc2ccccc2)CC1)c1cn(Cc2cccc(Cl)c2)nn1	Chrna7 (Rattus norvegicus, UniProt Q05941)	binding	rat brain membranes	added: radiolabelled α-bungarotoxin		IC50	1.6 µM

SMILES	target	test	system	setting	how to read	quantity	value
COC(=O)Oc1c(Cl)cc2oc(=O)sc2c1[N+](=O)[O-]	Salicylate synthetase, Irp9	salicylate production, inhibitor		pH 7.5, 25 °C, added: chorismate 2 µM		IC50	160 ± 10 µM
CC#C/C(=N\OC[C@H]1COCCN1)c1ccc2ncnc(Nc3ccc(OCc4cccc(F)c4)c(Cl)c3)c2c1	ROCK1 (Homo sapiens, UniProt Q13464)	kinase activity		10 µM		inhibition	-8.2%
CNC(=O)Oc1cccc2ccccc12	Ace (Anopheles gambiae, UniProt Q869C3)	enzyme activity, inhibitor, Ellman		10 min, room temperature, added: acetylthiocholine		IC50	0.0725 µM
O=C(O)c1ccccc1[As](=O)(O)O	SMPD1 (Homo sapiens, UniProt P17405)	enzyme activity, inhibitor		pH 5.0, added: sphingomyelin substrate		IC50	9.5 µM
COc1ccc2c(c1)c(CC(=O)OCc1ccc(OC(=O)OCC[Si](C)(C)C)cc1)c(C)n2C(=O)c1ccc(Cl)cc1	ache	enzyme activity, inhibitor, Ellman				IC50	0.72 ± 0.13 µM
CC(C)C[C@@H]1NC(=O)[C@H](CCC(=O)O)NC(=O)[C@@H]2CCCN2C(=O)[C@H](Cc2c[nH]cn2)NC(=O)[C@H](CCCCC(=O)O)NC(=O)[C@H](CC(C)C)NC(=O)[C@H](Cc2c[nH]cn2)NC(=O)[C@@H]2CSSC[C@H](NC(=O)CN)C(=O)N[C@@H](CSSC[C@@H](C(N)=O)NC1=O)C(=O)N[C@@H](CO)C(=O)N[C@@H](Cc1c[nH]cn1)C(=O)N1CCC[C@H]1C(=O)N[C@@H](C)C(=O)N2	Neuronal acetylcholine receptor; alpha4/beta2 (Rattus norvegicus, UniProt P09483+P12390)	ACh-evoked current, antagonist, two-electrode voltage clamp	Xenopus laevis oocytes	added: ACh 100 µM		IC50	0.28 µM
C[C@@H]1NC(=O)[C@H](CCCNC(=N)N)NC(=O)[C@H](CCCNC(=N)N)NC(=O)[C@H](Cc2c[nH]cn2)NC(=O)[C@H](CO)NC(=O)[C@@H]2CSSC[C@H](NC(=O)CN)C(=O)N[C@@H](CSSC[C@@H](C(N)=O)NC(=O)[C@H](CO)NC(=O)[C@H](CCCNC(=N)N)NC1=O)C(=O)N[C@@H](CO)C(=O)N[C@@H](Cc1c[nH]cn1)C(=O)N1CCC[C@H]1C(=O)N[C@@H](C)C(=O)N2	CHRNA7 (Homo sapiens, UniProt P36544)	ion current, antagonist, two-electrode voltage clamp	Xenopus oocytes	holding -70 mV, added: 100 µM acetylcholine		IC50	10.1 µM
CN(CCCl)Cc1cc(Cl)c(NC2=NCCN2)c(Cl)c1	KCNJ2 (Homo sapiens, UniProt P63252)	inward current, inhibitor, automated patch clamp		15 min, single concentration, at -120 mV		IC50	46 µM
CCC(C)C1NC(=O)/C(=C(/C)O)C1=O (stereo not shown)	AHA2, C-terminal 40-residue truncation (Arabidopsis thaliana, UniProt P19456)	ATP hydrolysis, inhibitor				IC50	3.7 µM
FC(F)(F)c1ccc2nc(Sc3ncnc4c3nnn4Cc3ccccc3)oc2c1	CYBB	enzyme activity, inhibitor, MCLA chemiluminescence	cell-free membranes			IC50	> 100 µM
C=C(C)[C@@H]1[C@H]2OC(=O)[C@@H]1[C@]1(O)C[C@H]3O[C@]34C(=O)O[C@H]2[C@]14C	GABA A receptor alpha-4/beta-3/gamma-2 (Homo sapiens, UniProt P18507+P28472+P48169)	chloride current, inhibitor, whole-cell voltage clamp	L929	3 min preincubation, added: GABA at EC90		IC50	3 µM
O=C(Cn1c(-c2ccccn2)nc2ccccc21)Nc1ccc2ccccc2c1	guaB (Vibrio cholerae, UniProt Q9KTW3)	enzyme activity, inhibitor		added: 1 mM IMP		IC50	> 5 µM
Fc1ccc2nc(Sc3ncnc4c3nnn4Cc3ccccc3)oc2c1	NOX1	enzyme activity, inhibitor, Amplex Red	cell-free membranes			IC50	> 100 µM
C[As](SC[C@H](NC(=O)CC[C@H](N)C(=O)O)C(=O)NCC(=O)O)SC[C@H](NC(=O)CC[C@H](N)C(=O)O)C(=O)NCC(=O)O	PGR (Homo sapiens, UniProt P06401)	DNA binding, fluorescence polarization		added: FITC-labelled GRE DNA		IC50	0.5 µM
Cc1cccc2nc(Sc3ncnc4c3nnn4Cc3ccccc3)oc12	NOX5	enzyme activity, inhibitor, Amplex Red	cell-free membranes			IC50	2.3 ± 0.1 µM
CC(C)C[C@@H]1NC(=O)[C@H](CCC(=O)O)NC(=O)[C@@H]2CCCN2C(=O)[C@H](Cc2c[nH]cn2)NC(=O)[C@H](CCCCCC(=O)O)NC(=O)[C@H](CC(C)C)NC(=O)[C@H](Cc2c[nH]cn2)NC(=O)[C@@H]2CSSC[C@H](NC(=O)CN)C(=O)N[C@@H](CSSC[C@@H](C(N)=O)NC1=O)C(=O)N[C@@H](CO)C(=O)N[C@@H](Cc1c[nH]cn1)C(=O)N1CCC[C@H]1C(=O)N[C@@H](C)C(=O)N2	Neuronal acetylcholine receptor; alpha3/beta2	ion current, antagonist, two-electrode voltage clamp	Xenopus laevis oocytes	added: 100 µM acetylcholine		IC50	0.00128 µM
O=[N+]([O-])c1cc(S(=O)(=O)c2cc([N+](=O)[O-])c(O)c([N+](=O)[O-])c2)cc([N+](=O)[O-])c1O	pchB (Pseudomonas aeruginosa, UniProt Q51507)	salicylate production, inhibitor		pH 8, 25 °C, added: isochorismate 2 µM		IC50	0.1 ± 0.1 µM

Some of these lines once more:
SMILES	target	test	system	setting	how to read	quantity	value
CC[C@H](C)[C@@H]1NC(=O)[C@H](CCC(=O)O)NC(=O)[C@@H]2CCCN2C(=O)[C@H](Cc2c[nH]cn2)NC(=O)[C@H](CC(N)=O)NC(=O)[C@H](C(C)C)NC(=O)[C@H](CO)NC(=O)[C@@H]2CSSC[C@H](NC(=O)CN)C(=O)N[C@@H](CSSC[C@@H](C(N)=O)NC1=O)C(=O)N[C@@H](CO)C(=O)N[C@@H](Cc1c[nH]cn1)C(=O)N1CCC[C@H]1C(=O)N[C@@H](C)C(=O)N2	Neuronal acetylcholine receptor; alpha3/beta2	ion current, antagonist, two-electrode voltage clamp	Xenopus laevis oocytes	added: 100 µM acetylcholine		IC50	0.00641 µM
Brc1ccc2nc(Sc3ncnc4c3nnn4Cc3ccccc3)oc2c1	NOX5	enzyme activity, inhibitor, Amplex Red	cell-free membranes			IC50	1.6 ± 0.1 µM
